Published values from different studies.
Lines come from different studies, so protocols differ. “And” joins repeats or separate records; there may be more than shown.
Target: Protein-tyrosine kinase 2-beta (PTK2B, Homo sapiens, UniProt Q14289)

COc1c(Cl)cccc1Nc1c(-c2ccncc2C#C[C@@]2(C)CCCN2C(=O)/C=C/CN(C)C)[nH]c2c1C(=O)NCC2 — remaining binding (cell-free assay, competition with immobilised ligand; 3 µM): 93%
CCN1CCN(Cc2ccc(C(=O)Nc3ccc(C)c(NCc4cnc5[nH]ccc5c4OC)c3)cc2C(F)(F)F)CC1 — remaining binding (binding, competition with immobilised ligand; 1 µM): 25%
COCC12C(=O)NC3C4(C(OC)CC1O)C1CC5(O)C(OC)C(O)C(OC(C)=O)(C1C5OC(=O)c1ccccc1)C3(O)C(OC)C24 (stereo not shown) — remaining activity (kinase activity, inhibitor, ProQinase kinase profiling; 25 µM; baseline: control): 106% and 96%
Nc1ncc2c(n1)-c1c([nH]c3ccc(C4=CCOCC4)cc13)CCC2 — remaining binding (binding, competition with immobilised ligand; 1 µM): 100%
Cc1cccc(O[C@H]2CCC[C@@H](C(C)CNCc3ccncc3)C2)c1 (relative stereo) — inhibition (enzyme activity, inhibitor; 10 µM): 1%
COc1ccc(NC(=O)Nc2ccc3c(c2)C(=O)N(C(C)CO)CC(C)C(CN(C)Cc2ccc4c(c2)OCO4)O3)cc1 (stereo not shown) — remaining activity (kinase activity, KinaseProfiler; 0.03 µM, species human; baseline: control): 99%
NC(=O)C[C@H]1CCc2sc3ncnc(O[C@H]4CC[C@H](N5CCOCC5)CC4)c3c21 — inhibition (enzyme activity, inhibitor; 10 µM): 6%
CN1CC[C@@H](COc2cnc(C#N)cc2-c2ccn3nc(NC(=O)C4CC4)cc3c2)C1 — inhibition (enzyme activity, inhibitor; 1 µM): 1%
C=CC(=O)Nc1cccc(-c2cnc3[nH]cc(C(=O)NC(C)(C)C)c3n2)c1 — inhibition (enzyme activity, inhibitor; 0.1 µM): 9%
CNC1C[S+]2CC[S+]3CC[S+](C1)[Ru-4]321([N]=C=S)[n]2c3ccc(OC)cc3c3c4c(c5cc(F)c[n+]1c5c32)C(=O)NC4=O (stereo not shown) — remaining binding (KinomeScan; 0.1 µM; baseline: untreated): 98%
C=CC(=O)N1CCc2ccc(-n3c(=O)ccc4cnc5ccc(-c6cnn(C)c6)cc5c43)cc21 — remaining binding (KINOMEscan; 1 µM; baseline: DMSO control): 100%
O=C(Cc1ccc(OCc2ccccc2)cc1)NC1(C(=O)O)CCN(C(=O)c2ccc(-c3cccc(Cl)c3)cc2)CC1 — activity vs control (enzyme activity, inhibitor; 10 µM): 91%
Cc1ccc(-c2c(/C=C(\C#N)C(=O)NC(C)C)n(CCCO)c3ncnc(N)c23)cc1 — remaining binding (cell-free assay, competition with immobilised ligand; 1 µM): 100%
COc1cc(Nc2nccc(-c3cnn4nc(OC)ccc34)n2)cc(C(F)(F)F)c1 — remaining binding (binding, competition with immobilised ligand; 1 µM): 87%
O=C(Nc1ccc(Oc2ncnc3[nH]cc(-c4ccccc4)c23)c(F)c1)c1c2n(n(-c3cc(F)ccc3F)c1=O)CCCC2 — inhibition (enzyme activity, inhibitor; 0.5 µM): -5%
CN1CCN(Cc2ccc(-c3ccc(CO[C@H]4CCC[C@@H]4NC(=O)c4cc(-c5cnn(C)c5)cnc4N)cc3)cc2)CC1 — inhibition (enzyme activity, inhibitor; 0.1 µM): 4%
